Experimental data of several laboratories.
Protocols differ between the studies behind these lines.
Organism: Streptococcus pneumoniae

c1ccc(CCNC2CCCc3c2oc2ccc(-c4ccccc4)cc32)cc1 (stereo not shown)  MIC (T4; C+Y medium): 50000 nM
CC[C@H]1OC(=O)[C@H](C)[C@@H](O[C@H]2C[C@@](C)(OC)[C@@H](O)[C@H](C)O2)[C@H](C)[C@@H](O[C@@H]2O[C@H](C)C[C@H](N(C)C)[C@H]2O)[C@](C)(O)C[C@@H](C)C(=O)[C@H](C)[C@@H](O)[C@]1(C)O  MIC (broth microdilution; ATCC 49619, penicillin intermediate; overnight, 37 °C): < 1 µg/mL
c1ccc2c(c1)nc(CNCC13CC4CC(CC(C4)C1)C3)n2CCC1CCOCC1  MIC (ATCC 49619): 8 µg/mL
O=C(CCCCCCCCCCOc1ccccc1)CP(=O)(O)O  MIC: 50 µg/mL
Oc1c(Br)cc(Br)c2nc3ccccc3nc12  MIC (broth microdilution; 6303; 16 h, 37 °C): 1170 nM
CCCCCCCC/C=C\CCCCCCCCNC(=O)CP(=O)(O)O  MIC: > 200 µg/mL
CC(C)C[C@@H](NC(=O)[C@H](C)NC(=O)CNC(=O)[C@@H](NC=O)C(C)C)C(=O)N[C@@H](C)C(=O)N[C@@H](C(=O)N[C@H](C(=O)N[C@@H](C(=O)N[C@@H](Cc1c[nH]c2ccccc12)C(=O)N[C@H](CC(C)C)C(=O)N[C@@H](Cc1cccc2[nH]ccc12)C(=O)N[C@H](CC(C)C)C(=O)N[C@@H](Cc1c[nH]c2ccccc12)C(=O)N[C@H](CC(C)C)C(=O)N[C@@H](Cc1c[nH]c2ccccc12)C(=O)NCCO)C(C)C)C(C)C)C(C)C  MIC (broth microdilution; NBRC 102642): 4.2 nM
Cc1ccc2[nH]c3c(c2c1)CCCC3NCCc1ccc(O)cc1 (stereo not shown)  MIC (broth microdilution; TIGR4): 2 to 4 µg/mL
CC(C)C[C@@H](NC(=O)[C@H](C)NC(=O)CNC(=O)[C@@H](NC=O)C(C)C)C(=O)N[C@@H](C)C(=O)N[C@@H](C(=O)N[C@H](C(=O)N[C@@H](C(=O)N[C@@H](Cc1c[nH]c2ccccc12)C(=O)N[C@H](CC(C)C)C(=O)N[C@@H](Cc1cc2ccccc2[nH]1)C(=O)N[C@H](CC(C)C)C(=O)N[C@@H](Cc1c[nH]c2ccccc12)C(=O)N[C@H](CC(C)C)C(=O)N[C@@H](Cc1c[nH]c2ccccc12)C(=O)NCCO)C(C)C)C(C)C)C(C)C  MIC (broth microdilution; NBRC 102642): 8.3 nM
COc1ccc(OS(=O)(=O)NC(=O)CCCCc2ccccc2)cc1  MIC: 200 µg/mL
Cc1ccc2[nH]c3c(c2c1)CCCC3NCCc1ccc(Br)cc1 (stereo not shown)  MIC (broth microdilution; TIGR4): 2 µg/mL
CCCC(=O)CP(=O)(O)O  MIC: 200 µg/mL
CC(C)C[C@@H](NC(=O)[C@H](C)NC(=O)CNC(=O)[C@@H](NC=O)C(C)C)C(=O)N[C@@H](C)C(=O)N[C@@H](C(=O)N[C@H](C(=O)N[C@@H](C(=O)N[C@@H](Cc1c[nH]c2ccccc12)C(=O)N[C@H](CC(C)C)C(=O)N[C@@H](Cc1ccc2[nH]ccc2c1)C(=O)N[C@H](CC(C)C)C(=O)N[C@@H](Cc1c[nH]c2ccccc12)C(=O)N[C@H](CC(C)C)C(=O)N[C@@H](Cc1c[nH]c2ccccc12)C(=O)NCCO)C(C)C)C(C)C)C(C)C  MIC (broth microdilution; NBRC 102642): 4.2 nM

Excerpt of the above:
O=C(CCCCCCCCCCOc1ccccc1)CP(=O)(O)O  MIC: 50 µg/mL
COc1ccc(OS(=O)(=O)NC(=O)CCCCc2ccccc2)cc1  MIC: 200 µg/mL
